Measured values gathered from unrelated publications.
Compare with care: the assays were run in different laboratories. Numbers after ± are the reported error.

| Compound | assay | system | setting | scale | endpoint | value |
| --- | --- | --- | --- | --- | --- | --- |
| [2H]C([2H])([2H])Oc1cc2c(cc1OC([2H])([2H])[2H])C1CC(=O)C(CC(C)C)CN1CC2 (stereo not shown) | item: deuterated β-HTBZ | healthy human volunteers, plasma | oral, 12 mg single dose, standard meal |  | dose-normalized AUC(0-inf) | 5.6 ng·h/mL |
| CN(C/C=C/C#CC(C)(C)C)Cc1cccc2ccccc12 | mitochondrial swelling | BALB/cByJ female mouse liver mitochondria | 30 min, together with: succinate + rotenone | reference: CaCl2 maximal swelling | EC20 | 20.6 µM |
| Cc1ccc(NC(=O)c2ccc(CN3CCNCC3)cc2)cc1Nc1nccc(-c2cccnc2)n1 |  | human patients, plasma | oral, 400 mg/day of imatinib, day 14 of cycle 1, together with: IL-2 6 MIU/day days 10-14 |  | AUC(0-24h) | 13200 ng·h/mL |
| Cn1c(-c2ccc(C(N)=O)cc2F)nnc1C(C)(C)Oc1c(F)cc(Cl)cc1F |  | young non-Japanese healthy subjects, plasma | oral, 0.2 mg once daily, 3 mg loading day 1, min-max, last dosing day |  | Ctrough | 0.443 to 0.652 ng/mL |
| CO/N=C1\C[C@]2(C[C@@H]3C[C@@H](C/C=C(\C)C[C@@H](C)/C=C/C=C4\CO[C@@H]5[C@H](O)C(C)=C[C@@H](C(=O)O3)[C@]45O)O2)O[C@H](/C(C)=C/C(C)C)[C@H]1C | HPLC | lamb, cranial jejunum mucosa | intraruminal, 0.2 mg/kg, 2 days post-treatment |  | drug concentration | 57.1 ± 5.3 ng/g |
| CS(=O)(=O)n1cc2c(n1)CN([C@H]1CO[C@H](c3cc(F)ccc3F)[C@@H](N)C1)C2 |  | healthy male human, plasma | oral, 50 mg once weekly, day 1, fasted, geometric mean |  | concentration at 168 h | 26.5 nM |
| CCc1oc2cc(Br)c(O)c(Br)c2c1C(=O)c1ccc(OC)cc1 | metabolic stability | Sprague-Dawley rat, liver microsomes | 1 µM, pH 7.4 |  | microsomal CLint | 269 µL/min/mg |
| Nc1ccn([C@@H]2CS[C@H](CO)O2)c(=O)n1 | mitochondrial swelling | BALB/cByJ female mouse liver mitochondria | 30 min, together with: succinate + rotenone | reference: CaCl2 maximal swelling | EC20 | > 400 µM |
| CN1CC[C@H](c2c(O)cc(O)c3c(=O)cc(-c4ccccc4Cl)oc23)[C@H](O)C1 |  | human patients, plasma | intravenous, 30 mg/m^2 loading dose, 0.5 h |  | mean plasma concentration | 1420 nM |
| N#Cc1ccnc(N2C(=O)CC[C@H]2C(=O)N(c2cncc(F)c2)[C@H](C(=O)NC2CC(F)(F)C2)c2ccccc2Cl)c1 |  | human newly diagnosed mIDH AML, plasma | oral, 500 mg once daily, together with: induction chemotherapy | reference: cycle 1 day 14 over day 1 | accumulation ratio Cmax | 1.69 |
| CN[C@@H]1[C@H](O)[C@H](NC)[C@H]2O[C@@]3(O)C(=O)C[C@@H](C)O[C@H]3O[C@@H]2[C@H]1O | cytochrome c release, ELISA | BALB/cByJ female mouse liver mitochondria | 30 min | reference: alamethicin maximal release | EC20 | > 400 µM |
| N=C(N)NCCC[C@H](NC(=O)[C@H](Cc1c[nH]c2ccccc12)NC(=O)[C@H](CCC(N)=O)NC(=O)[C@H](Cc1c[nH]c2ccccc12)NC(=O)[C@H](CCCNC(=N)N)NC(=O)[C@H](Cc1c[nH]c2ccccc12)NC(=O)[C@H](CCC(N)=O)NC(=O)[C@H](Cc1c[nH]c2ccccc12)NC(=O)[C@@H](N)CCCNC(=N)N)C(N)=O |  | human erythrocytes O+ | 200 µg/mL, 2 h, 37 °C |  | hemolysis | 13.2% |
| CC1=C2C[C@H]3[C@@H](CC[C@@H]4C[C@H](NS(C)(=O)=O)CC[C@@]43C)[C@@H]2CC[C@@]2(C1)O[C@@H]1C[C@H](C)CN[C@H]1[C@H]2C |  | patients, plasma | oral, 160 mg single, day -7, cycle 1 |  | AUC(0-24) | 1270 ng·h/mL |
| COc1cccc(N2CCN(C3=Nc4c(F)cccc4[C@H](CC(=O)O)N3c3cc(C(F)(F)F)ccc3OC)CC2)c1 | UHPLC-MS/MS | healthy women, plasma | intravenous infusion, 480 mg single dose, 60 min infusion, HPβCD formulation |  | MRT | 7.21 ± 1.71 h |
| Cn1cnc2c1c(=O)[nH]c(=O)n2C |  | human, fasted baseline, cerebrospinal fluid |  |  | median concentration | 333 nM |
| CS(=O)(=O)c1ccc(-c2cnc(N)c(-c3ccc(C(F)(F)F)nc3)c2)cc1 |  | pregnant female Sprague-Dawley rat, plasma | oral, 10 mg/kg/day, gestation day 17 |  | AUC(0-t) | 39200 ng·h/mL |

For quick reference, copied from above:
| Compound | assay | system | setting | scale | endpoint | value |
| --- | --- | --- | --- | --- | --- | --- |
| CS(=O)(=O)c1ccc(-c2cnc(N)c(-c3ccc(C(F)(F)F)nc3)c2)cc1 |  | pregnant female Sprague-Dawley rat, plasma | oral, 10 mg/kg/day, gestation day 17 |  | AUC(0-t) | 39200 ng·h/mL |
| CN(C/C=C/C#CC(C)(C)C)Cc1cccc2ccccc12 | mitochondrial swelling | BALB/cByJ female mouse liver mitochondria | 30 min, together with: succinate + rotenone | reference: CaCl2 maximal swelling | EC20 | 20.6 µM |
